Results gathered from unrelated publications.
Parts stem from different laboratories: compare values within a part only. Substitutions count along the parent as printed.

Study 1 — technique: universal PBM; molecule type: double-stranded DNA, one strand shown; matrix: in vitro; tested at: 600 nM; direction: higher = stronger binding
Target: Sal-like protein 4, full length isoform A (SALL4, Homo sapiens, UniProt Q9UJQ4, residues 1-1053)
UniProt Q9UJQ4, sequence (whole entry, looked up): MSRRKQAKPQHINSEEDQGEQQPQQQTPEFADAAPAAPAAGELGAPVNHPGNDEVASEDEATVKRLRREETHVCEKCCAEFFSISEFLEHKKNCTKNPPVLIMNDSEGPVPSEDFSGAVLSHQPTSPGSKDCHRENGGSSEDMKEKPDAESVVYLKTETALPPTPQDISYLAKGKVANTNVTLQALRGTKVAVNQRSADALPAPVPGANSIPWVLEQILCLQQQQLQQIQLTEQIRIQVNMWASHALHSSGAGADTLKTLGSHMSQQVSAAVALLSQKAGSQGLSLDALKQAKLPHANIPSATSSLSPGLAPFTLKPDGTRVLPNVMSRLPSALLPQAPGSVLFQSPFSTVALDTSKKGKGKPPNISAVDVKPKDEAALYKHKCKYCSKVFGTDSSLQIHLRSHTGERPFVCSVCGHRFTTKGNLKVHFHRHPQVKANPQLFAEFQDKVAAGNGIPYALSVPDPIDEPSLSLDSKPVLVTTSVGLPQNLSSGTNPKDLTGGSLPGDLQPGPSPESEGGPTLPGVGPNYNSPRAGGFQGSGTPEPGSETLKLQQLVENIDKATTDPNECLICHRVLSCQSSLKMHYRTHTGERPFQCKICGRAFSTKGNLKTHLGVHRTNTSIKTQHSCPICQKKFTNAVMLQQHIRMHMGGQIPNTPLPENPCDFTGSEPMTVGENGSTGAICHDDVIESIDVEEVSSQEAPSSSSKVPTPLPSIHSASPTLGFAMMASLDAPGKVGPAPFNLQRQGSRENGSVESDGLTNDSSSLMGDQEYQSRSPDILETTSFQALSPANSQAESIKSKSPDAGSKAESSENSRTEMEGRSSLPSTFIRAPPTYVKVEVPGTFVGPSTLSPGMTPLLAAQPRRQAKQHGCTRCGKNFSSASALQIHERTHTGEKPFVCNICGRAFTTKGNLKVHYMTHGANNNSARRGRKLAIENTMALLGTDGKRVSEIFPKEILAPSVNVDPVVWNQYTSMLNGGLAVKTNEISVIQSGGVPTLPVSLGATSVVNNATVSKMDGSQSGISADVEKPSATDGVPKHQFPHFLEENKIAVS
Setting: 8-mer, flanks averaged, mean of replicates
| Sequence | E-score |
| --- | --- |
| AGGCACCA | -0.171 |
| CGGCGAAA | -0.0257 |
| CTAACTAC | -0.0123 |
| GCTGCTAC | -0.162 |
| GAGTTCTA | -0.0175 |
| ACAACCGT | -0.116 |
| GTTTCTTA | 0.106 |
| AAGGAAGC | -0.182 |
| AGTCTGAC | -0.0863 |
| TCGGAAGA | -0.0779 |
| ACGTTAGC | 0.0524 |
| CAGTAGTC | -0.0838 |
| ACGCCAAG | -0.195 |
| GCGACGCA | -0.216 |
| CGGACTTC | -0.146 |
| ATTCGTGC | 0.0592 |
| TGGGACCA | -0.236 |
| ACTCGAGA | -0.044 |
| ACACACGA | -0.00449 |
| ACACGATC | -0.0259 |
| AATTAGAG | 0.131 |
| AACATGCT | -0.0237 |
| GAGACCAA | -0.02 |
| GCAGGGAA | -0.15 |
| CAACGAGC | -0.295 |

Study 2 — technique: protein binding microarray; molecule type: double-stranded DNA, one strand shown; matrix: in vitro; tested at: not given; reference: not given; direction: higher = stronger binding
Target: Histone acetyltransferase KAT6A, both winged helices, GST fusion (KAT6A, Homo sapiens, UniProt Q92794, residues 1-181)
Setting: 8-mer, flanks averaged, mean of 2 arrays, mostly near background
Residues (chain): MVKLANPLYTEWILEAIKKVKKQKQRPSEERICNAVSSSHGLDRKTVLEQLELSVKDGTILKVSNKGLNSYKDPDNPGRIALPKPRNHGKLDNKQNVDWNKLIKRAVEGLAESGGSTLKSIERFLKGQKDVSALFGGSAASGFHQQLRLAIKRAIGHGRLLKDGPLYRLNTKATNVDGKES
| Sequence | E-score |
| --- | --- |
| AACGCTAT | 0.0498 |
| ACAAGGAA | -0.109 |
| ATCTTACA | -0.112 |
| GGCTCACA | -0.0454 |
| GAACGAAA | -0.147 |
| CTTTTTAA | -0.178 |
| GAAGCTGC | 0.00542 |
| ATCACACC | -0.0878 |
| CCTAAGCG | 0.0935 |
| TCCTTTAA | -0.139 |
| CAGTGGTA | -0.146 |
| AGGTTGGG | -0.131 |
| AAGCAACA | -0.146 |
| GAGGTCAA | -0.0121 |
| AGTTCCCG | 0.235 |
| AATAGACA | -0.148 |
| TGGGAGAA | -0.279 |
| TACGCGCA | 0.342 |
| CCCAAACC | -0.0349 |
| TCCTGTCA | 0.0219 |
| TCATCAGA | -0.00266 |
| CACGGAAC | 0.313 |
| GAGAGTCA | -0.217 |
| GTATGGGA | -0.0428 |
| GAACGCCA | 0.00213 |

Study 3 — technique: RNA Bind-n-Seq; molecule type: RNA; matrix: in vitro; tested at: 200 nM; setting: whole 134-nt RNA, ends assumed; together with: 150 mM LiCl; reference: input library; direction: higher = stronger binding; all molecules: 7-deaza-guanosine replaces G
Target: Fragile X messenger ribonucleoprotein 1, C-terminal low-complexity region (Fmr1, Mus musculus, UniProt P35922)
| Sequence | log2 enrichment |
| --- | --- |
| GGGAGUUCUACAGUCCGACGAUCUCCUGUGCUACACAUCGUAUGUACCGAAUCGGUUUUUUGGUUUUUUGGGUUUUUUGGGGAAAGUAUUAUGUUACGCCGUUCGGAUCUGCAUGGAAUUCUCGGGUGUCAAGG | -1.38 |
| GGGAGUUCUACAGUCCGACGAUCGUCCUGUGCUACACAUCGUAUGUACCGAAUCAAAUUUUUAAACCCCCAAAUUUUUAAAAAAGUAUUAUGUUACGCCGUUCGGAUCUGCACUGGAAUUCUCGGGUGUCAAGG | -0.267 |
| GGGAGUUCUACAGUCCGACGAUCGCAGGAAGUAAAAACAAAUGGAAAAACUUCGGAUAGUGGCAGGGGUGGGGGUUGCUAAGGAAAGGGUGGGAUGGGAGUGGGUAAAGAGUUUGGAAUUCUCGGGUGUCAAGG | 1.55 |
| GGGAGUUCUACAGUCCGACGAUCAGUCCUGUGCUACACAUCGUAUGUACCGAAUCGGGCCCCCGGGCCCCCGGCCCCCGGAAAGUAUUAUGUUACGCCGUUCGGAUCUGCACUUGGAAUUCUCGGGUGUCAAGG | -0.645 |
| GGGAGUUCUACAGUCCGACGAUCUGGGAGGUGGAUUUUGUUUAUUAUUUUAGCUCAUUUCCAGGGGUGGGAAUUUUUUUUUAAUAUGUGUCAUGAAUAAAGUUGUUUUUGAAAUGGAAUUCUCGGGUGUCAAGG | -0.439 |
| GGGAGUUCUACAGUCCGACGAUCAGUCCUGUGCUACACAUCGUAUGUACCGAAUCGGGGUUUUUGGGGAGGGGUUUGGGGAAAGUAUUAUGUUACGCCGUUCGGAUCUGCACUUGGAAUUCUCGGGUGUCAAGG | -0.772 |
| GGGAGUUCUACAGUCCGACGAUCUGGCCCUGGUGGCAUGCGGGGAGGAAGAGGUGGCAUCAUGGAUCGUGGUGGUCCCGGUGGAAUGUUCAGAGGUGGCCGUGGUGGAGACAGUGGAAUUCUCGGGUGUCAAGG | 0.468 |
| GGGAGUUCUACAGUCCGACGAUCUGUGUUGUGCUCAUUACCAGUGCAGCGACUGCCGUCCCAGGGUGACUCUGAGUUGUCCUUUAUCGUGAGCUAGCAAUGGCUAGCGAAGACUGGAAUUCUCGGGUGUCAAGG | -2.54 |
| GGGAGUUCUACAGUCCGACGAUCAAGUCCUGUGCUACACAUCGUAUGUACCGAAUCGGCCCCGGGGCCCCGGCCCCGGGAAAGUAUUAUGUUACGCCGUUCGGAUCUGCACUUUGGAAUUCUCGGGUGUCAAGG | -2.96 |
| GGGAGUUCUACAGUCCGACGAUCUAACUUUAGAGGAGGAUCUGAUGGAUAUGGCAGUGGACGUGGAUUUGGGGAUGGCUAUAAUGGGUAUGGAGGAGGACCUGGAUGUGGCAAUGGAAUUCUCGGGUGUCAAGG | 0.0123 |
| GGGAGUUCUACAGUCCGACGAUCCACAGACAACACGCACCCACACAGACACAGAGGGAAGGGGUUGGGAUGGGGACAGGGUGCAUAGCAGGGCGGGGUAGGACCCCAGCCCCUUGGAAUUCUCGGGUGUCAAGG | -0.0182 |

Study 4 — technique: protein-binding microarray; molecule type: double-stranded DNA, one strand shown; matrix: in vitro; tested at: 2540 nM top; setting: 60-bp whole probe; together with: salmon DNA 0.4 mg/ml; reference: random background probes; direction: higher = stronger binding; all sequences stand within: GCCTAGCAC … GTCTTGATTCGCTTGACGCTGCTG
Target: Interferon regulatory factor 3, full length, phosphomimetic (IRF3, Homo sapiens, UniProt Q14653, residues 1-427, S386D/S396D/S398D/S402D/T404D/S405D)
Residues (chain): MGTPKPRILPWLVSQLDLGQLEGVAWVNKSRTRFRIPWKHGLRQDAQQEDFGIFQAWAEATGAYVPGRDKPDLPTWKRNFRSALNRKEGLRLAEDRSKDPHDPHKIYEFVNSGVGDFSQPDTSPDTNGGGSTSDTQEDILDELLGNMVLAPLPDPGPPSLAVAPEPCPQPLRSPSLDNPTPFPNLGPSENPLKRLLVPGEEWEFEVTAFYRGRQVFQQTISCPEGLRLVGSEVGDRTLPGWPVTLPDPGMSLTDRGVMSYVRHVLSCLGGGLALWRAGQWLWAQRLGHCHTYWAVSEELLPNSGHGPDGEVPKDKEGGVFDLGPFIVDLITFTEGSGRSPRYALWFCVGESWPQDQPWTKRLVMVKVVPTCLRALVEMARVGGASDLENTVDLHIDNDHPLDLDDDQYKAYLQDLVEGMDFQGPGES
| Sequence | fitted relative affinity [z-score] |
| --- | --- |
| GACGGTTCCGGTTTCGGGAGGTGCTAG | 6.13 |
| GACGGTCTCGGTACCGGGACGTGCTAG | 0.976 |
| TCAATTCTCAGCCCTGCGACTGTGCTA | 0.311 |
| TTACGACTGGGGTATCGGTTAGTGCTA | 0.197 |
| GACGATTTCGGGACTTGAGACGTGCTA | 1.55 |
| GACGGACTGGGGTTTAGGGACGTGCTA | -1.02 |
| TTAGATCTCACTTTCGATTAGTGCTAG | 2.55 |
| GACGGTATCCTACTGCGGACGTGCTAG | 2.9 |
| TCAGCTCCAGGTTCTCTGACTGTGCTA | -0.42 |
| CTATTTTTCCCCTGCACTCAGTGCTAG | 1.61 |
| TTTGGTCTCCTTATCCTTTAGTGCTAG | 3.15 |

Study 5 — target: CCNA1, cyclin fold, Cln2 fusion (human); technique: yeast growth competition, sequencing; matrix: yeast; setting: weak parent motif; reference: not given; direction: higher = stronger binding
Starting sequence: SAMHD1 docking peptide (human); ASKSRVQLFKDDP
| Substitution | normalised enrichment score |
| --- | --- |
| D12F | -0.221 |
| K10D | 0.0865 |
| D11G | 0.243 |
| R5D | 0.0688 |
| F9S | 0.475 |
| F9A | 0.0902 |
| S4L | 0.623 |
| R5T | 0.215 |
| S2G | 0.137 |
| S2Y | 0.59 |
| D12I | 0.443 |
| D11F | 0.338 |
| S2N | 0.365 |
| L8H | -0.00752 |
| F9G | -0.148 |
| S2H | 0.695 |
| R5Y | -0.231 |
| D11T | 0.126 |
| K3R | 0.3 |
| L8C | 0.534 |
| K10E | 0.433 |
| S4E | -0.0288 |
| S4M | 0.496 |
| L8M | 0.173 |
| Q7C | 0.176 |

Some of these lines once more (study 3):
| Sequence | log2 enrichment |
| --- | --- |
| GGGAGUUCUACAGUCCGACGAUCUCCUGUGCUACACAUCGUAUGUACCGAAUCGGUUUUUUGGUUUUUUGGGUUUUUUGGGGAAAGUAUUAUGUUACGCCGUUCGGAUCUGCAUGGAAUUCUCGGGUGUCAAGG | -1.38 |
| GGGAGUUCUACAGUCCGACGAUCGUCCUGUGCUACACAUCGUAUGUACCGAAUCAAAUUUUUAAACCCCCAAAUUUUUAAAAAAGUAUUAUGUUACGCCGUUCGGAUCUGCACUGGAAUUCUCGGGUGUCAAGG | -0.267 |
| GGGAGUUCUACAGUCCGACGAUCGCAGGAAGUAAAAACAAAUGGAAAAACUUCGGAUAGUGGCAGGGGUGGGGGUUGCUAAGGAAAGGGUGGGAUGGGAGUGGGUAAAGAGUUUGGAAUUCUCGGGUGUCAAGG | 1.55 |
| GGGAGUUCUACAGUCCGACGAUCAGUCCUGUGCUACACAUCGUAUGUACCGAAUCGGGCCCCCGGGCCCCCGGCCCCCGGAAAGUAUUAUGUUACGCCGUUCGGAUCUGCACUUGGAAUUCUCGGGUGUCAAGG | -0.645 |
| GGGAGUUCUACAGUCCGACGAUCUGGGAGGUGGAUUUUGUUUAUUAUUUUAGCUCAUUUCCAGGGGUGGGAAUUUUUUUUUAAUAUGUGUCAUGAAUAAAGUUGUUUUUGAAAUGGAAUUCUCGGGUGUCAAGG | -0.439 |
| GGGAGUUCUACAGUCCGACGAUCAGUCCUGUGCUACACAUCGUAUGUACCGAAUCGGGGUUUUUGGGGAGGGGUUUGGGGAAAGUAUUAUGUUACGCCGUUCGGAUCUGCACUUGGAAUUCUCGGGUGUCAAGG | -0.772 |
| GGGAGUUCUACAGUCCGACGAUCUGGCCCUGGUGGCAUGCGGGGAGGAAGAGGUGGCAUCAUGGAUCGUGGUGGUCCCGGUGGAAUGUUCAGAGGUGGCCGUGGUGGAGACAGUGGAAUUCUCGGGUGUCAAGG | 0.468 |
| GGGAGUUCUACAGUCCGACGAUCUGUGUUGUGCUCAUUACCAGUGCAGCGACUGCCGUCCCAGGGUGACUCUGAGUUGUCCUUUAUCGUGAGCUAGCAAUGGCUAGCGAAGACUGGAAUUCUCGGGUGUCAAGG | -2.54 |
| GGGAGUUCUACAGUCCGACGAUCAAGUCCUGUGCUACACAUCGUAUGUACCGAAUCGGCCCCGGGGCCCCGGCCCCGGGAAAGUAUUAUGUUACGCCGUUCGGAUCUGCACUUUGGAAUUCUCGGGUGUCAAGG | -2.96 |
| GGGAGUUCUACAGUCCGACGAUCUAACUUUAGAGGAGGAUCUGAUGGAUAUGGCAGUGGACGUGGAUUUGGGGAUGGCUAUAAUGGGUAUGGAGGAGGACCUGGAUGUGGCAAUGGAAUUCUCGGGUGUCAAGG | 0.0123 |
| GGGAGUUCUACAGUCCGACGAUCCACAGACAACACGCACCCACACAGACACAGAGGGAAGGGGUUGGGAUGGGGACAGGGUGCAUAGCAGGGCGGGGUAGGACCCCAGCCCCUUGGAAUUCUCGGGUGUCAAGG | -0.0182 |
